Measurements pooled from the literature.
Lines come from different studies, so protocols differ.
Organism: Acinetobacter baumannii

Structure (SMILES)	test	system	conditions	MIC
C=C1NC(=O)C2CSCC3NC(=O)C(CSC(C)C(NC(=S)C(Cc4cnc[nH]4)NC(=O)c4csc(C(C)NC(C)=O)n4)C(=O)N[C@H](CC(C)C(=O)NC(=O)CC(C(=O)O)NC(=O)C(C)NC3=O)C(=O)N2)NC(=O)[C@@H]2CCCN2C(=O)[C@@H](CC(C)C)NC1=O (stereo partly drawn)	bacterial growth	09987		> 32 µg/mL
CCCCCCCC(=O)N[C@@H](CCN)C(=O)N[C@H](C(=O)N[C@@H](CCN)C(=O)N[C@H]1CCNC(=O)[C@H]([C@@H](C)O)NC(=O)[C@H](CCN)NC(=O)[C@H](CCN)NC(=O)[C@H](CC(C)C)NC(=O)[C@@H](C)NC(=O)[C@H](CCN)NC1=O)[C@@H](C)O	broth microdilution	ATCC 17978	20 h, 37 °C	128 µg/mL
CC[C@H](C)[C@H](NC(=O)[C@@H](CCCNC(=N)N)NC(=O)[C@H](CCCNC(=N)N)NC(=O)[C@@H]1CCCN1C(=O)[C@@H]1CCCN1C(=O)[C@H](CCCNC(=N)N)NC(=O)[C@@H]1CCCN1C(=O)[C@H](CCCNC(=N)N)NC(=O)[C@@H]1CCCN1C(=O)[C@H](CC(C)C)NC(=O)[C@H](Cc1ccccc1)NC(=O)[C@@H]1CCCN1C(=O)[C@@H]1CCCN1C(=O)[C@H](CCCCN)NC(=O)[C@H](CC(=O)O)NC(=O)[C@@H](N)C(C)C)C(=O)N[C@@H](Cc1ccc(O)cc1)C(=O)N[C@@H](CC(N)=O)C(=O)N[C@H](CCCNC(=N)N)C(N)=O	broth microdilution	DSM 30008	18 h, 37 °C, 25% MHB2	64 µg/mL
C#CCOc1ccc(CN[C@@]2(C)C[C@H](O[C@H]3[C@H](Oc4c5cc6cc4Oc4ccc(cc4Cl)[C@@H](O)[C@@H](NC(=O)[C@@H](CC(C)C)NC)C(=O)N[C@@H](CC(N)=O)C(=O)N[C@H]6C(=O)N[C@H]4C(=O)N[C@H](C(=O)N[C@H](C(=O)N[C@@H](CCCNC(=N)N)C(N)=O)c6cc(O)cc(O)c6-c6cc4ccc6O)[C@H](O)c4ccc(c(Cl)c4)O5)O[C@H](CO)[C@@H](O)[C@@H]3O)O[C@@H](C)[C@H]2O)cc1OC	broth microdilution	BAA-747		72 µM
CC[C@H](C)[C@H](NC(=O)[C@H](CCCCN)NC(=O)[C@@H](NC(=O)[C@@H](NC(=O)[C@H](CC(C)C)NC(=O)[C@H](CCCNC(=N)N)NC(=O)[C@@H](NC(=O)[C@H](CC(C)C)NC(=O)[C@H](CCCNC(=N)N)NC(=O)CNC(=O)[C@H](Cc1ccccc1)NC(=O)[C@@H](N)CCCNC(=N)N)[C@@H](C)CC)[C@@H](C)CC)C(C)C)C(=O)N[C@@H](C)C(=O)N[C@@H](CCCNC(=N)N)C(=O)N[C@@H](CCCNC(=N)N)C(=O)N[C@@H](C)C(=O)N[C@@H](Cc1c[nH]cn1)C(=O)N[C@@H](CCCNC(=N)N)C(=O)N[C@@H](C)C(=O)N[C@@H](CCCNC(=N)N)C(=O)N[C@@H](CO)C(=O)N[C@@H](C)C(=O)N[C@H](C(=O)N[C@@H](CCCCN)C(=O)N[C@@H](C)C(=O)N[C@@H](C)C(=O)N[C@@H](CO)C(=O)N[C@@H](CC(N)=O)C(=O)N[C@H](C(=O)N[C@@H](C)C(=O)N[C@@H](C)C(=O)N[C@@H](CC(C)C)C(=O)N[C@@H](C)C(=O)N[C@@H](Cc1c[nH]cn1)C(=O)NCC(=O)N[C@@H](C)C(N)=O)C(C)C)C(C)C	bacterial growth, broth microdilution	cation-adjusted Mueller Hinton broth	18 h, 37 °C	≤ 0.064 µM
N=C(N)NCCC[C@@H]1NC(=O)[C@@H](CCCNC(=N)N)NC(=O)[C@H](CCCNC(=N)N)NC(=O)[C@@H](C(c2ccccc2)c2ccccc2)NC(=O)[C@@H](C(c2ccccc2)c2ccccc2)NC(=O)[C@@H](C(c2ccccc2)c2ccccc2)NC(=O)[C@@H](CCCNC(=N)N)NC1=O		NCTC 13304, carbapenem-resistant		16 µg/mL
COc1c(NC(=O)c2ccc(NC(=O)c3ccc(NC(=O)[C@H](Cc4c[nH]nn4)NC(=O)c4ccc(NC(=O)/C(C)=C/c5ccc(O)cc5)cc4)cc3)c(OC)c2O)ccc(C(=O)O)c1O	microbial growth, broth dilution			2 µg/mL
CC[C@H](C)[C@H](NC(=O)[C@@H](CCCNC(=N)N)NC(=O)[C@H](CCCNC(=N)N)NC(=O)[C@@H]1CCCN1C(=O)[C@@H]1CCCN1C(=O)[C@H](CCCCNC(=N)N)NC(=O)[C@@H]1CCCN1C(=O)[C@H](CCCNC(=N)N)NC(=O)[C@@H]1CCCN1C(=O)[C@H](CC(C)C)NC(=O)[C@H](Cc1ccc(O)cc1)NC(=O)[C@@H]1CCCN1C(=O)[C@@H]1CCCN1C(=O)[C@H](CCCCN)NC(=O)[C@H](CC(=O)O)NC(=O)[C@@H](N)C(C)C)C(=O)N[C@@H](Cc1ccc(O)cc1)C(=O)N[C@@H](CC(N)=O)C(=O)N[C@H](CCCNC(=N)N)C(N)=O	broth microdilution	DSM 30008	18 h, 37 °C, 25% MHB2	32 µg/mL
CN[C@H](CC(C)C)C(=O)N[C@H]1C(=O)N[C@@H](CC(N)=O)C(=O)N[C@H]2C(=O)N[C@H]3C(=O)N[C@H](C(=O)N[C@H](C(=O)NCC(N)=O)c4cc(O)cc(O)c4-c4cc3ccc4O)[C@H](O)c3ccc(c(Cl)c3)Oc3cc2cc(c3O[C@@H]2O[C@H](CO)[C@@H](O)[C@H](O)[C@H]2O[C@H]2C[C@](C)(NCc3ccc(OCc4cn(CC(=O)N[C@H](C(=O)N[C@@H](CCN)C(=O)N[C@H]5CCNC(=O)[C@H]([C@@H](C)O)NC(=O)[C@H](CCN)NC(=O)[C@H](CCN)NC(=O)[C@H](CC(C)C)NC(=O)[C@@H](CC(C)C)NC(=O)[C@H](CCN)NC5=O)[C@@H](C)O)nn4)c(OC)c3)[C@H](O)[C@H](C)O2)Oc2ccc(cc2Cl)[C@H]1O	broth microdilution	ATCC 17978, cation-adjusted Mueller-Hinton broth	18 to 20 h, 37 °C, 0.002% polysorbate 80	128 µg/mL
CCCCCCCC(=O)N[C@@H](CCN)C(=O)N[C@H](C(=O)N[C@@H](CCN)C(=O)N[C@H]1CCNC(=O)[C@H]([C@@H](C)O)NC(=O)[C@H](CCN)NC(=O)[C@H](CCN)NC(=O)[C@H](Cc2ccccc2F)NC(=O)[C@@H](CC(C)C)NC(=O)[C@H](CCN)NC1=O)[C@@H](C)O	broth microdilution	ATCC 19606, colistin-susceptible		0.125 to 0.25 µg/mL
CN[C@@H]1[C@H](O)[C@H](NC)[C@H]2O[C@]3(O)[C@H](O[C@@H]2[C@H]1O)O[C@H](C)C[C@H]3NC(=O)Cc1ccccn1	microbial growth, broth dilution	ATCC19606		> 200 µg/mL
CCn1ccn(CC)c1=[Se]	broth microdilution	carbapenem-resistant	24 h	> 40 µM
CCCCCCCC(=O)N[C@@H](CCN)C(=O)N[C@H](C(=O)N[C@@H](CCN)C(=O)N[C@H]1CCNC(=O)[C@H]([C@@H](C)O)NC(=O)[C@H](CCN)NC(=O)[C@H](CCN)NC(=O)[C@H](CC(C)C)NC(=O)[C@@H](Cc2ccc(Cl)cc2)NC(=O)[C@H](CCN)NC1=O)[C@@H](C)O	broth microdilution	ATCC 19606, colistin-susceptible		< 0.125 µg/mL
CCCCCCCC(=O)N[C@@H](CCN)C(=O)N[C@@H](C)C(=O)N[C@@H](CCN)C(=O)N[C@H]1CCNC(=O)[C@H]([C@@H](C)O)NC(=O)[C@H](CCN)NC(=O)[C@H](CCN)NC(=O)[C@H](CC(C)C)NC(=O)[C@@H](Cc2ccccc2)NC(=O)[C@H](CCN)NC1=O	broth microdilution	ATCC 17978	20 h, 37 °C	256 µg/mL
CC[C@H](C)[C@H](NC(=O)[C@@H](CCCNC(=N)N)NC(=O)[C@H](CCCNC(=N)N)NC(=O)[C@@H]1CCCN1C(=O)[C@@H]1CCCN1C(=O)[C@H](CCCNC(=N)N)NC(=O)[C@@H]1CCCN1C(=O)[C@H](CCCNC(=N)N)NC(=O)[C@@H]1CCCN1C(=O)[C@H](CC(C)C)NC(=O)[C@H](Cc1c[nH]cn1)NC(=O)[C@@H]1CCCN1C(=O)[C@@H]1CCCN1C(=O)[C@H](CCCCN)NC(=O)[C@H](CC(=O)O)NC(=O)[C@@H](N)C(C)C)C(=O)N[C@@H](Cc1ccc(O)cc1)C(=O)N[C@@H](CC(N)=O)C(=O)N[C@H](CCCNC(=N)N)C(N)=O	broth microdilution	DSM 30008	18 h, 37 °C, 25% MHB2	32 µg/mL
CCCCCCCC(=O)N[C@@H](CCN)C(=O)N[C@H](C(=O)N[C@@H](CCN)C(=O)N[C@H]1CCNC(=O)[C@H]([C@@H](C)O)NC(=O)[C@H](CCN)NC(=O)[C@H](CCN)NC(=O)[C@H](CCCc2ccccc2)NC(=O)[C@@H](Cc2ccccc2)NC(=O)[C@H](CCN)NC1=O)[C@@H](C)O	broth microdilution	ATCC 19606, colistin-susceptible		0.125 to 0.5 µg/mL
CC[C@H](C)[C@H](NC(=O)[C@@H](CCCNC(=N)N)NC(=O)[C@H](CCCNC(=N)N)NC(=O)[C@@H]1CCCN1C(=O)[C@@H]1CCCN1C(=O)[C@H](CCCNC(=N)N)NC(=O)[C@@H]1CCCN1C(=O)[C@H](CCCNC(=N)N)NC(=O)[C@@H]1CCCN1C(=O)[C@H](CC(C)C)NC(=O)[C@H](Cc1c[nH]c2ccccc12)NC(=O)[C@@H]1CCCN1C(=O)[C@@H]1CCCN1C(=O)[C@H](CCCCN)NC(=O)[C@H](CC(=O)O)NC(=O)[C@@H](N)C(C)C)C(=O)N[C@@H](Cc1ccc(O)cc1)C(=O)N[C@@H](CC(N)=O)C(=O)N[C@H](CCCNC(=N)N)C(N)=O	broth microdilution	DSM 30008	18 h, 37 °C, 25% MHB2	16 µg/mL
CC[C@H](C)[C@H](NC(=O)[C@H](C)NC(=O)[C@@H](NC(=O)[C@H](CC(=O)O)NC(=O)[C@H](CCCCN)NC(=O)[C@H](CO)NC(=O)[C@@H](NC(=O)[C@H](CC(N)=O)NC(=O)[C@H](C)NC(=O)[C@@H](NC(=O)[C@H](CCC(=O)O)NC(=O)[C@H](CCCCN)NC(=O)[C@@H](NC(=O)[C@@H](NC(=O)[C@H](Cc1c[nH]cn1)NC(=O)[C@H](CCCCN)NC(=O)[C@@H](NC(=O)[C@H](CCCCN)NC(=O)[C@H](CCCCN)NC(=O)[C@@H](NC(=O)[C@H](CC(C)C)NC(=O)[C@H](CCCCN)NC(=O)[C@H](CC(N)=O)NC(=O)[C@H](Cc1ccccc1)NC(=O)[C@H](CCCNC(=N)N)NC(=O)[C@H](CCCCN)NC(=O)[C@H](CCCNC(=N)N)NC(=O)[C@H](Cc1ccccc1)NC(=O)CN)C(C)C)C(C)C)[C@@H](C)O)[C@@H](C)CC)[C@@H](C)O)C(C)C)C(C)C)C(=O)N[C@H](C(=O)N[C@@H](C)C(=O)NCC(=O)N[C@@H](CO)C(=O)NCC(=O)N[C@H](C(=O)N[C@@H](C)C(=O)N[C@H](C(=O)NCC(=O)N[C@@H](C)C(=O)N[C@@H](C)C(=O)N[C@@H](CCSC)C(N)=O)C(C)C)C(C)C)C(C)C	broth microdilution	RKI 19/09, CAMHB with 10% mouse serum	150 mM NaCl	0.5 µg/mL

For quick reference, copied from above:
Structure (SMILES)	test	system	conditions	MIC
COc1c(NC(=O)c2ccc(NC(=O)c3ccc(NC(=O)[C@H](Cc4c[nH]nn4)NC(=O)c4ccc(NC(=O)/C(C)=C/c5ccc(O)cc5)cc4)cc3)c(OC)c2O)ccc(C(=O)O)c1O	microbial growth, broth dilution			2 µg/mL
